Experimental data of several laboratories.
Numbered parts are unrelated; each lists some results of a single study.

Set 1
Target: Histone acetyltransferase KAT6A, winged helix 2, GST fusion (KAT6A, Homo sapiens, UniProt Q92794, residues 85-181)
Method: protein binding microarray
Form: double-stranded DNA, one strand shown
Matrix: in vitro
Concentration: not given
Notes: 8-mer, flanks averaged, mean of 2 arrays, mostly near background
Reference: not given
Reading: higher = stronger binding
Measurement: E-score
Construct (chain): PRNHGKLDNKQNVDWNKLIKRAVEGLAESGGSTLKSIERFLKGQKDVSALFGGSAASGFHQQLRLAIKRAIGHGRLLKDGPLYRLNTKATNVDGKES
GCACGTTA: -0.0834
CCGGGTGC: 0.171
AAGTGTCC: -0.101
CTTACCGA: -0.00604
CACGGCGA: 0.25
TAATCCGA: -0.0373
TGCAGGCA: 0.0228
CAGGCGTC: 0.129
AGATCTAC: 0.0186
ATGTCATG: 0.0121
GTTCGCCA: 0.0629
CTCTCTAC: 0.0302
GAACATAC: -0.157
CATTCATC: -0.117
AAGGCTGC: -0.0107
CAAGTGGA: -0.0789

Set 2
Target: Sal-like protein 4, full length isoform A (SALL4, Homo sapiens, UniProt Q9UJQ4, residues 1-1053)
Sequence of UniProt Q9UJQ4 (whole entry, looked up): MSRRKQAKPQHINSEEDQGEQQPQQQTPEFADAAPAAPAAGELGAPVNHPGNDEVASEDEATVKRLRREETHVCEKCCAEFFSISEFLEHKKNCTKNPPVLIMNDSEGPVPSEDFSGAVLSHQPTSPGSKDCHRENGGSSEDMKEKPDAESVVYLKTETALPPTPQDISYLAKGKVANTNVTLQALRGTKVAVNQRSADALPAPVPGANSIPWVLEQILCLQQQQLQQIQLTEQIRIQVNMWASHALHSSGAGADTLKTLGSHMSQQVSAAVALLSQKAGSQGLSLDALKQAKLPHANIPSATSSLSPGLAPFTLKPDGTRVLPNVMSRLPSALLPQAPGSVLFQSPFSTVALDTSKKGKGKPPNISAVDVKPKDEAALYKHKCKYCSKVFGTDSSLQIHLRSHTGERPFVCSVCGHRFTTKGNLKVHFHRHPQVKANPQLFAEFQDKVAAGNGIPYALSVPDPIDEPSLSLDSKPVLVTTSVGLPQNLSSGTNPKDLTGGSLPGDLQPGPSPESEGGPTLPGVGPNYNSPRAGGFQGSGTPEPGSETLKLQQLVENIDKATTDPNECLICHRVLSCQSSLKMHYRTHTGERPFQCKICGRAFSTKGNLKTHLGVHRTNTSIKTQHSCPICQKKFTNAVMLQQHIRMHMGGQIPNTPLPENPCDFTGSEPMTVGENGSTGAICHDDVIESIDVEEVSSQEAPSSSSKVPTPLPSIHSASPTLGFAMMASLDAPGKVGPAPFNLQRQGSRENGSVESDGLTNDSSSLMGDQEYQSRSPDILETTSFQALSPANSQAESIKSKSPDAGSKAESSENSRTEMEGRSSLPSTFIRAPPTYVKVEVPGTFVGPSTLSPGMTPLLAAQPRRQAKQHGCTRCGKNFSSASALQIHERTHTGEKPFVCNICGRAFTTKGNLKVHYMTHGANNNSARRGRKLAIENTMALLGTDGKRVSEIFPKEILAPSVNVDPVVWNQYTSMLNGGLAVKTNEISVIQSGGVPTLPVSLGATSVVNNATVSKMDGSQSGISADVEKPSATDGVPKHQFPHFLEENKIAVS
Method: universal PBM
Form: double-stranded DNA, one strand shown
Matrix: in vitro
Concentration: 600 nM
Notes: 8-mer, flanks averaged, mean of replicates
Reading: higher = stronger binding
Measurement: E-score
GAATAACC: 0.133
GCTGATGA: 0.0719
AGGGTGTG: -0.198
CACTGGCA: -0.0946
ACTTAAGG: 0.0446
ATCGAAAA: 0.295
AATTCCCC: 0.0823
CAGGTATA: 0.118
AGCATTAA: 0.251
AGCCCGTA: -0.134
GGACAAAA: 0.0581
CTTTCGAC: 0.0159
CCGATCCA: -0.146
AAGTAAAC: 0.162
CGCGTCAA: -0.15
ATGTGGCA: -0.157

Set 3
Target: Interferon regulatory factor 5, full length, phosphomimetic (IRF5, Homo sapiens, UniProt Q13568-2, residues 1-514, S451D/S453D/S456D/S462D)
Method: protein-binding microarray
Form: double-stranded DNA, one strand shown
Matrix: in vitro
Concentration: 940 nM top
Notes: 60-bp whole probe
Together with: salmon DNA 0.4 mg/ml
Reference: random background probes
Reading: higher = stronger binding
Measurement: fitted relative affinity
Constant ends, left off below: GCCTAGCAC … GTCTTGATTCGCTTGACGCTGCTG
TTAGGTTTCGACTTGCGGTTAGTGCTA: 8.92 z-score
GACGGCTTCCTTTCCCTGACGTGCTAG: 0.617 z-score
TTAGGTATCGACTTTCGCTTAGTGCTA: 5.44 z-score
GACGATTTCGGGTATTGAGACGTGCTA: 0.929 z-score
TTAGGTATCGGGACTGCGTTAGTGCTA: 4.29 z-score
TTATGTCTCCTACTGCTTTAGTGCTAG: 0.809 z-score
CTGTTTTTGCTTTCCTTCATGTGCTAG: 1.88 z-score
CTGACTTTGGAGATGACTCAGTGCTAG: -0.437 z-score
GACGGACTCGGGTTTCGGGACGTGCTA: 2.04 z-score
TTAGGTTTCGACTATCCGTTAGTGCTA: 9.85 z-score
AAGCCATTGGTCTTCACTTGGTGCTAG: -0.21 z-score

Single results of other studies
PhoQ, residues 284 288 289 292 302 303 AAQSYM
fold induction (PhoP, residues 12 14 15 18 19 AQCLL (Escherichia coli, UniProt P23836); Sort-seq, refers to: YFP reporter; E. coli; PhoQ-PhoP variant library, together with: 10 µM Mg2+; reference: high Mg2+ state, higher = stronger signaling): 1.32
